Assay results gathered from unrelated publications.
Protocols differ between the studies behind these lines. Several values in a cell are separate wells, animals, samples, runs or records. ± gives the spread as reported.
Fibroin-modulator-binding protein-1: Fibroin-modulator-binding protein-1 99-193 (Bombyx mori, UniProt Q5FBS0)
HLA class I histocompatibility antigen, A alpha chain allele A*02:01: HLA class I histocompatibility antigen, A alpha chain, allele A*02:01 (Homo sapiens, UniProt P04439)

`human immunoglobulin gamma-1 constant` has a co-IP enrichment of 1.24e+06 (co-immunoprecipitation; human plasma; no crosslinker, unit not given, added: Band 3 peptide 1-56 bait; reference: negative control).
With `LIMQLMPF` the binding score was 17.1% (HLA class I histocompatibility antigen, A alpha chain, allele A*24:02 (Homo sapiens, UniProt P04439); conformational ELISA; peptide; concentration not given; reference: positive control peptide, direction not given).
With `ERK2` the co-IP enrichment was 0 (co-immunoprecipitation; human RBC cytosol; no crosslinker, unit not given, added: Band 3 peptide 1-56 bait; reference: negative control).
`GLAQWIPQV` gave a reporter activation of 0.0168% (Jurkat T cells expressing 1G4 TCR; NFAT-eGFP reporter, fluorescence microscopy; peptide; concentration not given, HLA-A*02:01 NY-ESO system).
`cotadutide` gave a metabolite level of 0.83 ± 0.04 scaled intensity (metabolomics, measured: hepatic glutamine; ob/ob mice on AMLN diet, NASH model, liver; dose not given).
With `epoetin alfa` the mRNA level was 50.2 fold (UT7/EPO; microarray, measured: OSM mRNA (probe set 230170_at); 5 U/mL, 90 min; reference: vehicle).
With `AACCAACCAACC (dsDNA)` the Kd was 3.06 ± 0.458 µM (Fibroin-modulator-binding protein-1; ITC; double-stranded DNA, one strand shown).
`thimet oligopeptidase` has a co-IP enrichment of 0 (co-immunoprecipitation; human RBC membrane; unit not given, added: Band 3 peptide 1-56 bait; reference: negative control).
`Polymyxin B` has a membrane depolarisation of 680 a.u. and 884 a.u. and 665 a.u. (Staphylococcus aureus; DiSC3(5) fluorescence; concentration not given, 33 min; higher = more depolarisation).
`human HSC70` has a co-IP enrichment of 38 (co-immunoprecipitation; human RBC membrane; DMTMM crosslinker, unit not given, added: Band 3 peptide 1-56 bait; reference: negative control).
Under “normalised SPR binding response”, `GSGAGKESYV` is recorded as 97.4 normalised RU (human MAGI1-3/6 PDZ construct (MBP fusion); surface plasmon resonance; peptide; concentration not given; higher = stronger binding).
The relative binding of `GGGAGAACUUCGACCAGAAGGUUCAAAUCCCCGCACAUUACGUAACACUCGAACCCUACCUAUGUGCGCAUACAUGGAUCCUC (ssRNA; 2'-fluoro pyrimidines)` is reported as 46.9 RU (integrin alphaV/beta3 31-992/27-718 (Homo sapiens); SPR; RNA; added: MnCl2 1 mM; higher = more binding).
With `SVWLRKETRV` the binding intensity was 0.462 (human MAGI1-3/6 PDZ construct (MBP fusion); automated holdup; peptide, crude extract; concentration not given, corrected by standard peak, unit not given; reference: biotin control resin, higher = stronger binding).
For `CLLEWITHV`, the reporter activation was 0.23% (Jurkat T cells expressing 1G4 TCR; NFAT-eGFP reporter, flow cytometry; peptide; concentration not given, HLA-A*02:01 NY-ESO system).
For `human alpha-enolase`, the co-IP enrichment was 1.04 (co-immunoprecipitation; human RBC membrane; unit not given, added: Band 3 peptide 1-56 bait; reference: negative control).
For `colistin`, the MIC was 8 µg/mL (Escherichia coli; broth microdilution; clinical isolate RKI-No_330/16).
`GGGAGAACUUCGACCAGAAGCACUACGUGACCAUGAUUCCCCACCUGUGCUUCAGUCAGUUAUGUGCGCAUACAUGGAUCCUC (ssRNA; 2'-fluoro pyrimidines)` gave a relative binding of 85.4 RU (integrin alphaV/beta3 31-992/27-718 (Homo sapiens); SPR; RNA; added: MnCl2 1 mM; higher = more binding).
For `PKRSFIESNV`, “normalised SPR binding response” read 0 normalised RU (human MAGI1-3/6 PDZ construct (MBP fusion); surface plasmon resonance; peptide; concentration not given; higher = stronger binding).
The Kd of `GTGAGTGAGTGA (dsDNA)` is reported as 9.88 µM (Fibroin-modulator-binding protein-1; ITC; double-stranded DNA, one strand shown).
`GSGAGSETVV` has a binding intensity of 0.114 (human MAGI1-2/6 PDZ construct (MBP fusion); automated holdup; peptide, purified PDZ protein; concentration not given, unit not given; reference: biotin control resin, higher = stronger binding).
`MTVCNASQRQAHAQATAVSL` has a selectivity ratio of 1.9 ± 0.54 (HCC461; phage binding; peptide; reference: targeting over control phage).
Under “HLA class I surface increase”, `KLVVVGAGDV` is recorded as 9.6% (HLA class I histocompatibility antigen, A alpha chain allele A*02:01; MHC class I stabilisation, flow cytometry; peptide, TAP2-knockout TISI monoallelic cells; 25 µM, 18 h, 37 °C, added: β2-microglobulin 3 µg/mL; reference: DMSO).
`GSGAGICTIV` has a binding intensity of 0.0985 (human MAGI1-2/6 PDZ construct (MBP fusion); automated holdup; peptide, purified PDZ protein; concentration not given, unit not given; reference: biotin control resin, higher = stronger binding).
`ALLEWLTTL` has a reporter activation of 0.0108% (Jurkat T cells expressing 1G4 TCR; NFAT-eGFP reporter, fluorescence microscopy; peptide; concentration not given, HLA-A*02:01 NY-ESO system).
The co-IP enrichment of `human desmoplakin` is reported as 0 (co-immunoprecipitation; human plasma; no crosslinker, unit not given, added: Band 3 peptide 1-56 bait; reference: negative control).
For `ALFQWISQV`, the reporter activation was 63.9% (Jurkat T cells expressing 1G4 TCR; NFAT-eGFP reporter, flow cytometry; peptide; concentration not given, HLA-A*02:01 NY-ESO system).
`IMQLMPFGCLL` has a binding score of 76% (HLA class I histocompatibility antigen, A alpha chain allele A*02:01; conformational ELISA; peptide; concentration not given; reference: positive control peptide, direction not given).
`SLLQWVTQV` has a reporter activation of 80.9% (Jurkat T cells expressing 1G4 TCR; NFAT-eGFP reporter, flow cytometry; peptide; concentration not given, HLA-A*02:01 NY-ESO system).
The co-IP enrichment of `TCP-1 alpha` is reported as 116 (co-immunoprecipitation; human RBC membrane; DMTMM crosslinker, unit not given, added: Band 3 peptide 1-56 bait; reference: negative control).
`Peginesatide` has a phosphorylation level of 20 fold (UT7/EPO; tyrosine phosphorylation, LC-MS/MS phosphoproteomics, GluC, measured: PTPN18 tyrosine 387; 10 nM, 15 min, added: 10 U/mL EPO; reference: vehicle).
`TASPAKETSF`: “normalised SPR binding response” 70.8 normalised RU (human SCRIB PDZ3-4 tandem (MBP fusion); surface plasmon resonance; peptide; concentration not given; higher = stronger binding).
With `tripeptidyl peptidase 2` the co-IP enrichment was 919 (co-immunoprecipitation; human RBC cytosol; DSSO crosslinker, unit not given, added: Band 3 peptide 1-56 bait; reference: negative control).
With `GLLQWVSQV` the reporter activation was 59.3% (Jurkat T cells expressing 1G4 TCR; NFAT-eGFP reporter, flow cytometry; peptide; concentration not given, HLA-A*02:01 NY-ESO system).
For `KDECVIATEV`, the binding intensity was 0.00931 (human MAGI1-2/6 PDZ construct (MBP fusion); automated holdup; peptide, purified PDZ protein; concentration not given, unit not given; reference: biotin control resin, higher = stronger binding).
With `SLLEWISQV` the reporter activation was 0.25% (Jurkat T cells expressing 1G4 TCR; NFAT-eGFP reporter, flow cytometry; peptide; concentration not given, HLA-A*02:01 NY-ESO system).
`PMESGICTIV` has a binding intensity of -0.00443 (human MAGI1-2/6 PDZ construct (MBP fusion); automated holdup; peptide, crude extract; concentration not given, uncorrected, unit not given; reference: biotin control resin, higher = stronger binding).
The reporter activation of `ALLEWVSQV` is reported as 0.00778% (Jurkat T cells expressing 1G4 TCR; NFAT-eGFP reporter, fluorescence microscopy; peptide; concentration not given, HLA-A*02:01 NY-ESO system).
The OD600 of `milbemycin oxime` is reported as 1 and 1.02 (Saccharomyces cerevisiae; cell growth; Pdr5 deleted, Cdr1 overexpressed; 2^-6.644 µg/mL, added: fluconazole 1 µg/mL).

Repeated from above:
With `epoetin alfa` the mRNA level was 50.2 fold (UT7/EPO; microarray, measured: OSM mRNA (probe set 230170_at); 5 U/mL, 90 min; reference: vehicle).
The Kd of `GTGAGTGAGTGA (dsDNA)` is reported as 9.88 µM (Fibroin-modulator-binding protein-1; ITC; double-stranded DNA, one strand shown).
`ALLEWLTTL` has a reporter activation of 0.0108% (Jurkat T cells expressing 1G4 TCR; NFAT-eGFP reporter, fluorescence microscopy; peptide; concentration not given, HLA-A*02:01 NY-ESO system).
`thimet oligopeptidase` has a co-IP enrichment of 0 (co-immunoprecipitation; human RBC membrane; unit not given, added: Band 3 peptide 1-56 bait; reference: negative control).
